Experimental data of several laboratories.
Compare with care: the assays were run in different laboratories. ± marks the error that the study gave.
rep main protease: Replicase polyprotein 1ab, main protease (rep, Severe acute respiratory syndrome coronavirus 2, UniProt P0DTD1)
rep papain-like protease: Replicase polyprotein 1ab, papain-like protease (rep, Severe acute respiratory syndrome coronavirus 2, UniProt P0DTD1)

O=C(O)CC[C@H](NC(=O)c1ccccc1[Se][Se]c1ccccc1C(=O)N[C@@H](CCC(=O)O)C(=O)O)C(=O)O
IC50 (rep main protease; enzyme activity, inhibitor): > 10 µM

CN(C)c1ccc(-c2cccc3c2CC(CO)c2c(-c4ccc(Br)cc4)ccc(O)c2-3)nc1 (stereo not drawn)
IC50 (rep main protease; enzyme activity, inhibitor): 5.5 µM

CCOC(=O)/C=C/[C@H](C[C@@H]1CCNC1=O)NC(=O)[C@@H]1[C@@H]2[C@H](CN1C(=O)[C@@H](NC(=O)C(F)(F)F)C(C)(C)C)C2(C)C
IC50 (rep main protease; enzyme activity, inhibitor, FRET): 0.044 µM

Brc1c(Br)c(Br)c2[nH]nnc2c1Br
IC50 (Replicase polyprotein 1ab, methyltransferase (rep, Severe acute respiratory syndrome coronavirus 2, UniProt P0DTD1); enzyme activity, inhibitor): 9.87 µM

CC(=O)Nc1ccc(S(=O)(=O)NNc2ncnc3sccc23)cc1
IC50 (Replicase polyprotein 1ab, nsp3 macrodomain (rep, Severe acute respiratory syndrome coronavirus 2, UniProt P0DTD1); ADP-ribose binding, inhibitor, fluorescence polarization; Mac1 domain, SARS-CoV-2): 53.6 ± 7.4 µM

CC(C)(C)c1ccc(NC(=O)NCCC[C@H](CNCc2ccccc2)C[C@H]2O[C@@H](n3cnc4c(N)ncnc43)[C@H](O)[C@@H]2O)cc1
IC50 (Replicase polyprotein 1ab, nsp14 (rep, Severe acute respiratory syndrome coronavirus 2, UniProt P0DTD1); nsp14 methyltransferase activity, inhibitor, radiometric SPA; 20 min, together with: 3H-SAM 250 nM, RNA 50 nM): 95 ± 6 µM

Nc1nnc(SC2CC(=O)N(c3cccc4ccccc34)C2=O)s1 (stereo not drawn)
IC50 (rep main protease; enzyme activity, inhibitor; 10 min preincubation, 30 nM enzyme, together with: 20 µM substrate): 1.89 ± 0.22 µM

CCC(C(=O)Nc1ccccc1F)n1c(SCc2ccc(F)cc2)nc2ncccc21 (stereo not drawn)
IC50 (rep papain-like protease; enzyme activity, inhibitor): > 20 µM

COc1cc(/C=C/C(=O)O)ccc1O
IC50 (Replicase polyprotein 1ab, nsp13 helicase (rep, Severe acute respiratory syndrome coronavirus 2, UniProt P0DTD1); helicase unwinding activity): > 30 µM

CC(C)C[C@H](NC(=O)[C@H](CCCN)NC(=O)[C@@H](NC(=O)[C@@H](N)CCC(N)=O)C(C)C)C(=O)N[C@H](/C=C/S(=O)(=O)c1ccc(O)cc1)C[C@@H]1CCNC1=O
IC50 (rep main protease; enzyme activity, inhibitor; with preincubation): 1.6 µM

NCC(CCC(N)C(=O)O)CC1OC(n2cnc3c(N)ncnc32)C(O)C1O (stereo not drawn)
IC50 (Replicase polyprotein 1ab, nsp16 with nsp10 (rep, Severe acute respiratory syndrome coronavirus 2, UniProt P0DTD1); nsp10–nsp16 methyltransferase activity, inhibitor, radiometric; SARS-CoV-2; together with: 1.7 µM 3H-SAM, 0.8 µM biotinylated RNA): 3.4 ± 0.7 µM

CC1(C)C2CCC1(C)C(n1[se]c3ccccc3c1=O)C2 (stereo not drawn)
IC50 (rep main protease; enzyme activity, inhibitor): 0.203 µM

CCOC(=O)/C=C/C(=O)NNC(=O)CCc1ccccc1C(=O)N[C@H](C)c1cccc(-c2ccsc2)c1
IC50 (rep papain-like protease; enzyme activity, inhibitor, FRET): 0.12 µM

CNC(=O)C[C@H](Cc1ccc(F)cc1)NC(=O)[C@@H](Cc1ccc(Cl)cc1Cl)NC(=O)[C@@H](N)C[C@H]1CCNC1=O
IC50 (rep main protease; enzyme activity, inhibitor, fluorescence): > 50 µM

CN(C)S(=O)(=O)c1ccc2nnn(OCc3cccc4cccnc34)c2c1
IC50 (rep main protease; enzyme activity, inhibitor): > 100 µM
